# Assay results from different studies.
# Numbered parts are unrelated; each lists some results of a single study. Changes are numbered by the printed parent chain.

# Study 1
# Target: ABI1, truncated, D143A, DHFR fusion (Arabidopsis thaliana)
# Method: DHFR PCA, deep sequencing
# Medium: yeast
# Setting: methotrexate growth selection, single substitutions
# Added: (+)-ABA 17 µM
# Relative to: wild-type fitted maximum
# Direction: higher = stronger binding
# Starting sequence: PYL1, truncated, DHFR fusion (Arabidopsis thaliana); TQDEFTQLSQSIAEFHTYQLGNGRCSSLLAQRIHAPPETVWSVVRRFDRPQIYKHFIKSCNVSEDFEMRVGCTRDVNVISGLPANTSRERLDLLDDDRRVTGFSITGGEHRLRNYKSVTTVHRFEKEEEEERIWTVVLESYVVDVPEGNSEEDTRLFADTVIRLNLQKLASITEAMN
Change,relative binding score [%]
F47E,-4.88
Q31K,76.3
P37R,5.2
E131P,92.2
R123P,81.4
T135Q,29.4
E89G,7.14
D153T,2.43
T160G,39.7
E147P,88.5
L169M,21.9
R88D,22.6
R46L,48.7
L112K,-1.56
Q19F,62.7

# Study 2
# Target: CREB3L3, bZIP domain (human)
# Method: DHFR protein complementation
# Medium: yeast
# Setting: single substitutions, most at no-binding floor
# Relative to: wild-type JUN-FOS pair
# Direction: higher = stronger binding
# Starting sequence: JUN, bZIP domain (human); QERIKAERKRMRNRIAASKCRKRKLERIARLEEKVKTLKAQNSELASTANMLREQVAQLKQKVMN; partner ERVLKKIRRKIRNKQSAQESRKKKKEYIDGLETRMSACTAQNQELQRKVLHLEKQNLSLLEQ
Change,binding fitness [natural log]
E33L,-1.37
S43K,-1.13
L31E,-1.45
A40F,-1.22
A40V,-1.39
K39E,-1.48
I28Y,-1.07
A29G,-1.41
Q41D,-1.47
Q55G,-1.43
R53I,-1.49
M51N,-1.33
R30T,-1.4

# Study 3
# Target: RNA binding protein fox-1 homolog 2, RRM domain, GST-SBP tag (RBFOX2, Homo sapiens, UniProt O43251-10, residues 100-194)
# Method: RNA Bind-n-Seq
# Form: RNA
# Medium: in vitro
# Tested at: 365 nM
# Setting: natural RNA segment, single round, ends assumed
# Relative to: no-protein control
# Direction: higher = stronger binding
# Constant ends, left off below: GGGAGUUCUACAGUCCGACGAUC … UGGAAUUCUCGGGUGCCAA
# Target sequence (chain): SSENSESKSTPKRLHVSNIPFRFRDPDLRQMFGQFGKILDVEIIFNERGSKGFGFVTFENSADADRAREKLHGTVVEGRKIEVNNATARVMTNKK
Sequence,RBNS enrichment (R)
CUGUAUUGUAAUAUUAUUUGUUGAAUGUAGUAAUUAGGUAUUUAUGAAUAUAUUGCUGUAAUUUCUGACAUCCCGAAAAAUAAAAUCUUCCUAAAUCAUGUUAAGACGAA,0.449
GUCUCCUGCUUUCAAAGGUUCUUAAUAGUGAAUGCUUUAAAAUUAAAGUCAUCACGAAAUGGAAGUUUUCCCAGGGUGGAAAAUAAGAGGAAGUGCUGCUGUAAUUGGGA,0.332
AUCUGUGUCAACCCUCUGCCUGCAGGGACAGAUAAAUGGAACUCUGGUUGUGAUAUCAUAACUAAGAUCAGUCACCUCCCAGGAGUCUGCAGAGUUCUAGGUACACCACC,1.31
UGCCGUUCUGACCUGGGACUGGGCCACUUCUUCAGUUCCUAAUGCCAGGCCUGGCCUCCUGAUGCCUUUUGCAUUGCAGCUGUGUGUUUGAAAACUGAGACUCACAUCCA,0.534
CCUGUAUCAGGUGGUUAACCAAGGAAUCCACAUCAACAGGUGGGGCCAUCUUUAAUGUGGGCACCAGAGACUCGGAGCGGUCCUUUUGCUUCAAAGACAGGAGUUCACUG,0.32
CUGUGGAUCUCUCUCCUUGGCCUUCAGUCCCUGCAGUAUUUUACUGUCAGAUAGCAUGUGGUGCCUCUACUUGUAAAUGUCAAAUCUUUGAAAUAAACUAUUACAGAUAU,3.32
CCGCCAAAUGUCUACACAGUAUACACAGGACAUCGUUGCUGCCGCCGUGACUGGUUUUCUGUCCCCAAGAACGUGACGUUCGUGAUGUCCUGCCCGCCGGGAGUCUUUCC,0.419
UAGUAGGCUUUGAGAUAAUAAACUUACCCGUGUCAAUUAACAUUUAAACUGGCAUAUAGAAAAAAAGGAGGAUUUUUCUGCAUUGUAAAAUAAUCAGUAUGGUUUAUAUG,1.01
ACCAGUUGGGAUAAGUGUCAGAGUGAGCACCCCCUCAGCCCGUCCUCCACAAGGGACCCUUGAGAUCACUGACACAUCACCCCCAUUUCUCUGCUGGAAAAAACCAGAAU,0.23
UUCUGUACCUGACUUUGGGCAACAGGUAUCAAAAGCCUCAAGAGAACAGUUUCUCUGAUAAGAUUAUUUUAUACCAGGGGUCAGAAGACUCCACUCACGGGCCAAGUUUG,0.396
CCCUCACCCCACCACCAGGGUCCUGACUUCACAUUCUUCACAGAAGGGGACAAGACCUCCAGGAGGCCCUGUGGAGUCUCUGGUGAGGUGUGCGAUGGCAGAGCAGCAUC,0.327
CUCACACAAGAAGACAGAGCCGGAAACAUGCAGGGUCAGACCAGUGUUCCUACAGUGAGCCCCAGAACUGCACAUUUGACCCAAAGGCACUCAGGUGGUGAAAAGAGACA,0.652

# Study 4
# Target: Histone acetyltransferase KAT6A, winged helix 1, GST fusion (KAT6A, Homo sapiens, UniProt Q92794, residues 1-85)
# Method: protein binding microarray
# Form: double-stranded DNA, one strand shown
# Medium: in vitro
# Tested at: not given
# Setting: 8-mer, flanks averaged, mean of 2 arrays, mostly near background
# Relative to: not given
# Direction: higher = stronger binding
# Residues (chain): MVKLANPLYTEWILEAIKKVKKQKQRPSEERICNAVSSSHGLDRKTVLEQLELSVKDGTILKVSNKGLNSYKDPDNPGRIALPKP
Sequence,E-score
CAAACCAA,-0.272
TACGCAGA,0.00195
CCGGCGAC,0.367
GGCAAGTA,-0.0315
GAATTATC,-0.154
AGTATCAG,-0.046
AGAAAACC,-0.0698
ATGCGTAG,0.192
AAAGCCCG,0.257
CACATGTG,0.0641
CAGTTGAA,-0.227
CCACCGAG,-0.0165
AGGGAGTC,-0.216
CAAATCGA,-0.239
ACTGTTGA,-0.142
CCCGTTCC,0.0764
GCATATAC,0.138
ATTTCAGA,-0.233
CATCGGCG,0.344
GCGAAGTA,0.11
ACGACACA,-0.245
ATCTCACG,0.0595
CCGCTCTA,0.191

# Study 5
# Target: CCNE1, cyclin fold, Cln2 fusion (human)
# Method: yeast growth competition, sequencing
# Medium: yeast
# Setting: strong parent motif
# Relative to: not given
# Direction: higher = stronger binding
# Starting sequence: CDKN1B docking peptide (human); PSACRNLFGPVDH
Change,normalised enrichment score
PSACRNLFVPVDH [G9V],0.783
PSACGNLFGPVDH [R5G],0.271
PSACRALFGPVDH [N6A],2.14
PSACRNLFGPVDE [H13E],2.82
KSACRNLFGPVDH [P1K],4.06
PSACPNLFGPVDH [R5P],-0.176
PSACRNTFGPVDH [L7T],-0.0498
PSAYRNLFGPVDH [C4Y],0.312
RSACRNLFGPVDH [P1R],3.44
PSACRNFFGPVDH [L7F],0.813
CSACRNLFGPVDH [P1C],2.93
PSACKNLFGPVDH [R5K],0.983
PSACRNLFGWVDH [P10W],1.67
PSACRNLFGPVLH [D12L],2.82
PSACRNLFGPVYH [D12Y],2.63
PSACTNLFGPVDH [R5T],0.324
PSACRNLFMPVDH [G9M],1.26
PSACRNLFGPVDS [H13S],2.71
PSACRNLFGHVDH [P10H],2.21
PSACRNLFGPVGH [D12G],2.59
PSACRILFGPVDH [N6I],3.96
PSACSNLFGPVDH [R5S],0.759
PSACRNRFGPVDH [L7R],-0.0299
PSACRDLFGPVDH [N6D],1.09
ISACRNLFGPVDH [P1I],3.15

# Study 6
# Target: RING finger protein unkempt homolog, zinc fingers 1-6, GST-SBP tag (UNK, Homo sapiens, UniProt Q9C0B0, residues 30-357)
# Method: RNA Bind-n-Seq
# Form: RNA
# Medium: in vitro
# Tested at: not given
# Setting: RNA with constant flanks, human and mouse sites, ends assumed
# Relative to: input RNA pool
# Direction: higher = stronger binding
# Constant ends, left off below: GGGAGUUCUACAGUCCGACGAUC … CAACAGAGGAUUGAGCAUCA
# Residues (chain): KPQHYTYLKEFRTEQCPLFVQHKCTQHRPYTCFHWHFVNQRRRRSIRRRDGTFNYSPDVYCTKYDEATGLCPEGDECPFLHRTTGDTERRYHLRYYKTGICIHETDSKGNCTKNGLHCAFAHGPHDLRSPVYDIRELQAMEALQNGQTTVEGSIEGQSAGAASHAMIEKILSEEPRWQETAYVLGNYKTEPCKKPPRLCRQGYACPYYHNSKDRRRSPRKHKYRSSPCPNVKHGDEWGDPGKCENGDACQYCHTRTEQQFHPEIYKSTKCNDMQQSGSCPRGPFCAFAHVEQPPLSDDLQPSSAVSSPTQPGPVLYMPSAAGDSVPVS
Sequence,bound/input enrichment [ratio]
UUUUACUGGGAGAGGUAAGACAAGAGGAAACGUUUAGCAUCAGUGACUCACAAAUCAGCAACACAGAAUUUCUGCAAGUAAUUGAAAUCCAUAACCAUCAGCCUUGUUCAAAACUUUUUA,0.282
UUAGAAUGUUACUUAGACCAAGUUUAGCUUUUAGAGUCCAGGUCUGGUUAAUUGCCAGGGUAGCAAAGAAUUGCAUGCACCAAUAUAAACAGGAGUCAAAAAUGCAUUAUUAAUCGAAGA,1.24
ACAAAUUCUAAGUCUGAUGAAGACAGGCAGCUAGCUAACUCAUUAGAGAGUGUAGGGCCAAUAGAUUACGUUCUUCCUAGUUGUGGUAUUAUUGCCUCAGCGCCUCGAUUGGGCAGUCGG,1.03
ACUCUGCUCUUCAGACCCCCUGUGUGAUUCAGAGAUGUGAACACGCAAAAUACACGCAGCAUUGCCCCUUCGAUGUUCUCAUCACAUAACGUUACCUCUAAAAGGGAAAAUCAUUGCCCC,0.152
UGGCAUGAGCUUUUGAAACCUCAAAGCUCACUUCCAGUGACACACUGUCUGGACAAGGUCAUACCUCCUUAUCCUUCUAAGACUUCUUAAAUAGUGCCACUCCCUGAUGACAAAACAUUC,0.102
CUUCCAUAAGGAAGGCUGGUUAUGGAUAUUCAUAAGGUUAUUUCAAAGUUAAUAAAGACAAAGUGGCAACUGUAGAAAGUGUUGCCUCCAAUCUUGGUCCGUAUUUCCAAAGCUUGUAAA,0.211
AGCAUACUGCCAUCAGCUCCAAAAAACCAGCAUUCAACUUGUCUGCCUUUGGAACACUUUCCACCUCACUUGGGAAUUCUUCAAUUCUUAAAACAAGUCAGCUUGGAGACUCUCCUUUUU,0.166
GUUAUCUCCAACAAAGCCGCAGUAGCUGGGUUAGAUAAAGCGGAAAGAGCUGGUAUUCCCACUAGAGUAAUUAAUCAUAAACUGUAUAAAAAUCGUGUAGAAUUUGACAGUGCAAUUGAC,109
CAAGUACCUUAUAAAUAUGACUUAUAUGAAAAAACUUUGAAAUAUAAUUCAGACUUGCUUAAUAGUAAUAGAAGCUAUGCAGGAAAGCAGACUGAUGAGUGUAAUGAAUUUGGAAAAGCA,0.578
AAGCAACUUAUGGAAACAACUACAGAAUUUACAAAAAAGCUUCGGUGUUUACUUGCCUGGCAAUAGCAUUGGGAUUUUAUAGAUUCUGGAAGUAGUAUUAAUGCUCAUCCUGCUGUGGCU,1.5
CUCUCGCCUUGGCAGAAGUAUAAGUCCUACCUCCUUCCCGUGUGUGCAGUUGUGGUGGCAGUGCUUAUGUGGUACAUCUUCCAUGGUGUGGAUUAAUGAUCCUUUAAAUCUCCUGACAUA,0.0981

# Study 7
# Target: Sal-like protein 4, full length isoform B (SALL4, Homo sapiens, UniProt Q9UJQ4-2, residues 1-616)
# Method: universal PBM
# Form: double-stranded DNA, one strand shown
# Medium: in vitro
# Tested at: not given
# Setting: 8-mer, flanks averaged, mean of replicates
# Direction: higher = stronger binding
Sequence,E-score
AGCACACT,0.141
ACACGACC,-0.0983
GAGGTGAC,-0.0326
ACCCCAAG,-0.219
AGAAGCCG,-0.227
CAGCCAAA,0.062
CTGCCTAC,0.105
CATAAAGA,0.307
AATTCTGG,0.0812
AGACCAGC,-0.355
CTTTCAAC,0.00543
CCCGCGAG,-0.207
GGTGCACC,-0.3
AGGATGAT,0.0447
AAGTCATA,0.3
CTTCTATC,-0.0672
AACCACGG,-0.267
ATTACGTG,0.101
ATTGTCTA,0.182
AAGTCTGC,-0.0649
TCCATTCA,0.108

# Other studies, line by line
Molecule,target,test,test system,setting,how to read,measurement,value
"PhoQ, residues 284 288 289 292 302 303 HSYLQF","PhoP, residues 12 14 15 18 19 NQFFI (Escherichia coli, UniProt P23836)","Sort-seq, item: YFP reporter",E. coli,"PhoQ-PhoP variant library, added: 10 µM Mg2+","relative to: high Mg2+ state, higher = stronger signaling",fold induction,18.7

# For quick reference, copied from above (study 4):
Sequence,E-score
TACGCAGA,0.00195
CCGGCGAC,0.367
GGCAAGTA,-0.0315
GAATTATC,-0.154
AGTATCAG,-0.046
AGAAAACC,-0.0698
ATGCGTAG,0.192
AAAGCCCG,0.257
CACATGTG,0.0641
CAGTTGAA,-0.227
CCACCGAG,-0.0165
AGGGAGTC,-0.216
CAAATCGA,-0.239
ACTGTTGA,-0.142
CCCGTTCC,0.0764
GCATATAC,0.138
ATTTCAGA,-0.233
CATCGGCG,0.344
GCGAAGTA,0.11
ACGACACA,-0.245
ATCTCACG,0.0595
